Measurements from different studies.
A part holds a random share of what one study measured. Substitutions count along the parent as printed.

Sample 1
Target: Hepatocyte nuclear factor 3-alpha (Foxa1, Mus musculus, UniProt P35582, residues 1-468, full length assumed)
Technique: EMSA with sequencing
Molecule type: double-stranded DNA, one strand shown
Medium: in vitro
Concentration: 10 and 20 nM
Notes: whole designed probe, mean of two concentrations, ends assumed
Relative to: negative control set to 0
Reading: higher = stronger binding
Endpoint: normalised bound fraction
Constant ends, left off below: GTGAGCGGTGCCCATTGATGGGGAAC … TTTCACTGGGATCGTGGGGAC
Residues (chain): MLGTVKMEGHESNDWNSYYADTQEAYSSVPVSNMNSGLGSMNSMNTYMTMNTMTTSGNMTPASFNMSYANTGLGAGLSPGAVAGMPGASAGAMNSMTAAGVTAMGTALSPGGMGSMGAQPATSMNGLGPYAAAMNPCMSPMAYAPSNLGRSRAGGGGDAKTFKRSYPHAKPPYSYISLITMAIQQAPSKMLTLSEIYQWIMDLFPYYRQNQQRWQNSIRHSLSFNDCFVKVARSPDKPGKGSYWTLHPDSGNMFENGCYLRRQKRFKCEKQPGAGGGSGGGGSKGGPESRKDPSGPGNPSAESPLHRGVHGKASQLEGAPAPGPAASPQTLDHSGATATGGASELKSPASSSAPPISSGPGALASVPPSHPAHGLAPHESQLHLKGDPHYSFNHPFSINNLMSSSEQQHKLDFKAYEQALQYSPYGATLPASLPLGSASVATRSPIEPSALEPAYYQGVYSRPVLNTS
Strand = ATCTTCCCCCTCTTCCTTGCCCCACCAGCTCACCTACGGGGGTTATTTGCACAAAGGAAAATAAATAAAGCCGGCATTCGTTAACCCTCTTCTGGCGCAAACTGCTGTTTGCTCTGCATCTAACATGGTCCTTACGCGACGCCAGGCTCCGGGAGAGCAAAGCACCGTGTCAGGCGCATGATCCGGGCTCGCC; value = 0.389 ratio
Strand = GAGCTGCTTGCAATTGAGTTGTATGTATGCTTCCACTTAATACGTCCTGCCGAGCCTGTAAGCCAACACTTCCGGCCAGGAATCTGCCCTCTGAGATTACCTACTCTCTTTTTATGTCTTATTCCCAGAATGACTGGGGACCAAAGGAATCCTTTGCAGGAGTTTTCTCCAGACAGACAGTTCCACATGCTAG; value = -0.0449 ratio
Strand = TTTAAACTTTTGTAAAAATGTTCAAAGAGAATCTGTTGTTAGAAGTTTAACATTCTGATTTAACTGTTTTGAATACGAAAAATACAAACTCAAAGTAATCTTCTAAAATATAAGGCAAATCTATCCATATAGAAAAGGAATAAGAAGGTACTGACCAATGAAGTTGAAACAACACTGTCATATTAATCTCAAA; value = -0.0194 ratio
Strand = CTTCCAAAGGTCAAGTTGATACTGCATGACCTAAGGCCCCCGCCATAAATTGCGTTGTTTGCATAGATGACCTGGCACAACCCAAAGCCTTAGGTAAATAAAGACACTCTTAGAAAACAGGGTATTCCAAAGGCTCAGGGATTATCTTTCAGGAGATGGGCAGGGCCCAGTTGGGTTTTTTTTTTTTTTTTTT; value = 0.504 ratio
Strand = GGGTCCCGGGCGGCGGCAGGAATGCAGGAATGCGCACAGGCTGTGGGCGGCCAGGAGGGAGTCCCGGGGCGGAAGTGCGCCTGCCCCAGTCTTTGTGTACCCTGTCCAACACCTCCCCCCGCCAGCGCGGAAGGCCGGGCTACCTGCGCGCCTGGCAGCGCCTGGCAGCCGGCTGGGTGGGGCGCAGGGGAGC; value = 0.0164 ratio
Strand = TGGGCTGTCCTTGGACAGGGCCATGGGATGCCACTTCCCTCTCTCTCCCTTTGGCAGAGAGCCCTCGGAAACAGGAGTTATTGAGAAACCAAAAGTAATCTGCTCAGCCTCTCCCCGGGGCCTGTGGAGCCTGTTGCCCCGGATGGATGGGGTTAGTGCCAGCAGCTGCTCAGATGATCTGTGGGGCATGTTC; value = -0.0725 ratio
Strand = TGACCTGTGATCATGTTTCAGGAAGGAATGAAAGAGAGTTCTTTCTTAATAAAGAAAAACACTCAAGGACTTTGTTCATTTCCAAAGCTACTTGTTTACATTGTACACTGCGACCACCTTGCCGCTTTTCATCACAAGCTTGAATATTTAAATTCTGTACTTATATCTGTAAAATAGCCAGGAATTTCCTGTT; value = 0.408 ratio
Strand = AGCAAGGCTTTAAAAGTGAGGTCTTTCAGTTTAGATGCAAAAAGGGTGGTTCTGTTGAGTCAACCCAGCTATTTCACTAGTTTCGTAATCATAGTAAACACCTAGAATGAGGTAGCTGGAGTGCAAATCTAAATGGCTTGTGACAGTTAAGGAAGTACATAGGCAACAGTTACTGGTTTTCTTGATGCAGCTG; value = -0.0256 ratio

Sample 2
Target: JUN, bZIP domain (human)
Technique: DHFR protein complementation
Medium: yeast
Notes: single substitutions, most at no-binding floor
Relative to: wild-type JUN-FOS pair
Reading: higher = stronger binding
Endpoint: binding fitness
Starting sequence: JUN, bZIP domain (human); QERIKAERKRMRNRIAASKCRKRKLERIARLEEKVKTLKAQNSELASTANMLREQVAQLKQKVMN
Variant = A57P; value = -1.38 natural log
Variant = Q41P; value = -1.48 natural log
Variant = L52Q; value = -1.46 natural log
Variant = L45H; value = -1.28 natural log
Variant = E44P; value = -1.32 natural log
Variant = L45K; value = -1.33 natural log
Variant = L38F; value = -1.26 natural log
Variant = L38A; value = -1.31 natural log
Variant = S47P; value = -1.35 natural log

Sample 3
Target: ABI1, truncated, D143A, DHFR fusion (Arabidopsis thaliana, UniProt P49597)
Technique: DHFR PCA, dose-response
Medium: yeast
Notes: Hill fit, mean, not affinity
Together with: (+)-ABA, dose series
Reading: lower = more sensitive
Endpoint: ABA EC50
Starting sequence: PYL1, truncated, DHFR fusion (Arabidopsis thaliana, UniProt Q8VZS8); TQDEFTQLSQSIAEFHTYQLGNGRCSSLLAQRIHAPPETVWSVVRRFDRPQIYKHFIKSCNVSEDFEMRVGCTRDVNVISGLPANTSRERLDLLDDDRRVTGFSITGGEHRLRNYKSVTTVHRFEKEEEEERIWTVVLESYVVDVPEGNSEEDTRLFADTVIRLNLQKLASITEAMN
Variant = I12W; value = 122 µM
Variant = D95M; value = 24.6 µM
Variant = G107E; value = 37.9 µM
Variant = I12G; value = 257 µM
Variant = K168E; value = 28.8 µM
Variant = T173Q; value = 192 µM
Variant = E147I; value = 4.29 µM
Variant = R69I; value = 2.66 µM
Variant = V40A; value = 148 µM
Variant = S63D; value = 2.72 µM
Variant = H55A; value = 0.234 µM
Variant = L29G; value = 622 µM
Variant = Q51N; value = 12.4 µM
Variant = G21N; value = 3.41 µM
Variant = E131S; value = 3.25 µM
Variant = T39H; value = 4.62 µM
Variant = Q31C; value = 67.3 µM
Variant = T73S; value = 4.16 µM

Sample 4
Target: CCNB2, cyclin fold, Cln2 fusion (human)
Technique: yeast growth competition, sequencing
Medium: yeast
Notes: strong parent motif
Relative to: not given
Reading: higher = stronger binding
Endpoint: normalised enrichment score
Starting sequence: MICAL3 docking peptide (human); LQLRRQLSFSEDS; partner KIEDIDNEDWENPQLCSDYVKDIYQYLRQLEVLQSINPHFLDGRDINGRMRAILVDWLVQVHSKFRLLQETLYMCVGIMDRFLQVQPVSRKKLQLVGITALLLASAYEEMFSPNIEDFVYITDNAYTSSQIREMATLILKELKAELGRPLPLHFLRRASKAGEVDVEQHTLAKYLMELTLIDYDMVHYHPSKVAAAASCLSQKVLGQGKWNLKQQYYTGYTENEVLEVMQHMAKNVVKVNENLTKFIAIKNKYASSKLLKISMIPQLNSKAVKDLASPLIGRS
Variant = L7M; value = 1.01
Variant = S10K; value = 1.44
Variant = R5V; value = 0.659
Variant = D12G; value = 3.22
Variant = Q6N; value = 1.57
Variant = F9N; value = -0.089
Variant = L3V; value = 3.82
Variant = R5K; value = 1.59
Variant = R4V; value = 2.16
Variant = L7C; value = -0.11
Variant = F9S; value = -0.124
Variant = L3W; value = 0.323
Variant = Q6V; value = 2.75
Variant = S10L; value = 1.26
Variant = D12N; value = 2.48
Variant = S10C; value = 1.85
Variant = R4H; value = 0.67
Variant = S8F; value = 1.09
Variant = S8Y; value = 0.946
Variant = Q2A; value = 3.04
Variant = S8Q; value = 1.05
Variant = F9H; value = -0.156
Variant = D12V; value = 3.17
Variant = E11P; value = 1.53
Variant = Q6Y; value = 1.61

Sample 5
Target: RNA binding protein fox-1 homolog 2, RRM domain, GST-SBP tag (RBFOX2, Homo sapiens, UniProt O43251-10, residues 100-194)
Technique: RNA Bind-n-Seq
Molecule type: RNA
Medium: in vitro
Concentration: 365 nM
Notes: natural RNA segment, single round, ends assumed
Relative to: no-protein control
Reading: higher = stronger binding
Endpoint: RBNS enrichment (R)
Constant ends, left off below: GGGAGUUCUACAGUCCGACGAUC … UGGAAUUCUCGGGUGCCAA
Construct (chain): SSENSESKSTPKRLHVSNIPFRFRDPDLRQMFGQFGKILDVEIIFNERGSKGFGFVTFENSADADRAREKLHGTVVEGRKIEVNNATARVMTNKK
Strand = UGACCUUUUGGCUUCCACGUCACCCAGAGUGUUAAAAUUUUUACUUAAUUCAUAGCUGUCCUUGAUUUCAUAUUUGUUUGCAUUUAAUUUAUGUUUCUUUGGAUCCUCAU; value = 16.2
Strand = GGUCAAGUUACACGUGAAUUUGUUUUGUGAAGAAGGGAAGCUGGGGCAGGUAACACGCAGAGCCGCCACGUGGAACGGUCUGUCCGCCGGUCUGUCCCGCUUGCCGGGCU; value = 0.421
Strand = AGGUGGAGAAGGCUUGUGCAGGUACAAACGACCUCAAGGACUGUGGCCUGCAACUGGAGACUGCUAAGCCCUGACGUCUGGUGCCGAGGUCGUCUGCAGGGUUUUGCCCU; value = 0.372
Strand = CAAUUUCUGUCUUUUGUAAGACUGUGGGCUUUAGGCUUCUCUUGGUUUGUUUUGUGCAUUAAGGGACAUAACUUGGGACUCAAAGGGAUUGUUUCGCUGACCCCGCUCUU; value = 1.26
Strand = UCCAAAUCCAGCCCUUUUCGUUCUCUUAAUGAUGAAUCACCCAAAGACCUGGCUUUCAUGCUUCCUUAGACACGGCCUCCCUCGACUUACUUGCCUUGAAGAAGAAAGGC; value = 0.604
Strand = AGAUGUCUAAGGUGGAUUCAGUGUCUGGCACACUGAGACACCUCCAAGAAGGAGAUUGAUGCAUCAGGUUCAGUUUAACCUGGAAUAUCUGACUACCCCUGAAUCCACCC; value = 0.295
Strand = UUGGCCUGCGUGUUUAGAAGCUCCCUGAAAUCAGUUAGCAUCCUAAUACGAGUCAGAUGCUGCAGAAAUGUAAGGCACUUCAAGUCACUUAUGGGUUGGCUUGGUUUGGU; value = 1.07
Strand = UUCAGCAUGCCAUUUCUGACUGGCACAUCUCGUGAAGUUUCAUAGAAACAAGGAGUUGGCAUCUUGGAUCUCAGAAUGGCCUGGAAACGGAUGGCCUCUACGCUGUUCCA; value = 7.65
Strand = UAUUCUAUUGUAUUAUUUGGAGUUAGGUCCUCACUUGGGGGAAAAAAAAAAAAGAAAAGCCAAGCAAACCAAUGGUGAUCCUCUAUUUUGUGAUGAUGCUGUGACAAUAA; value = 0.629
Strand = GUGCCAUUUUGAUUUUUAUUUUGGUUGGUUGGUUGAAUAAAUAUGCGACACUCAGAACACUUGAGGUGAUAGUUUUAAAAAAAACAAACAAACAGUACCAGUAUUUGAUC; value = 0.651
Strand = UCACUUCCACAAAUGGCAUCUCCAAGUAAGCUGUCACCUGGUACACAUGGAGGUGGAGCCUGCAGCUGGAGUGAGGCGCACACUUGACUCUACUUGCAGGUGGUUUGCUG; value = 0.259
Strand = GGAGAUGGCCACAGGGGACAACACACUAAUGGUUAAUUAUUGCUCAUGUUGUAGAGCCUUUUCUUAGGUGGAGUAUUUCUGAAGGCUUUAAAAUCAUUACAAUAAAAACC; value = 0.897

For quick reference, copied from above (sample 5):
Strand = AGGUGGAGAAGGCUUGUGCAGGUACAAACGACCUCAAGGACUGUGGCCUGCAACUGGAGACUGCUAAGCCCUGACGUCUGGUGCCGAGGUCGUCUGCAGGGUUUUGCCCU; value = 0.372
Strand = GGUCAAGUUACACGUGAAUUUGUUUUGUGAAGAAGGGAAGCUGGGGCAGGUAACACGCAGAGCCGCCACGUGGAACGGUCUGUCCGCCGGUCUGUCCCGCUUGCCGGGCU; value = 0.421
Strand = GGAGAUGGCCACAGGGGACAACACACUAAUGGUUAAUUAUUGCUCAUGUUGUAGAGCCUUUUCUUAGGUGGAGUAUUUCUGAAGGCUUUAAAAUCAUUACAAUAAAAACC; value = 0.897
Strand = UAUUCUAUUGUAUUAUUUGGAGUUAGGUCCUCACUUGGGGGAAAAAAAAAAAAGAAAAGCCAAGCAAACCAAUGGUGAUCCUCUAUUUUGUGAUGAUGCUGUGACAAUAA; value = 0.629
